Results from different studies.
Numbered parts are unrelated; each lists some results of a single study. Changes are numbered by the printed parent chain.

Block 1
Target: CREB3L4, bZIP domain (human)
Method: DHFR protein complementation
Sample: yeast
Notes: single substitutions, most at no-binding floor
Baseline: wild-type JUN-FOS pair
Direction: higher = stronger binding
Quantity: binding fitness
Starting sequence: JUN, bZIP domain (human); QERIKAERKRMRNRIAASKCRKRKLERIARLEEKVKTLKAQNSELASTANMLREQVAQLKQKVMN; partner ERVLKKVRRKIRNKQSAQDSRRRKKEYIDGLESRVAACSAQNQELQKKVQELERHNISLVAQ
S47E: -1.49 natural log
K39I: -1.6 natural log
A49T: -1.56 natural log
I28L: -1.26 natural log
E33D: -1.53 natural log
A46M: -1.49 natural log
L45S: -1.46 natural log
K39W: -1.48 natural log
N42R: -1.4 natural log
R53M: -1.37 natural log
R30K: -1.31 natural log
L38H: -1.49 natural log
S43F: -1.38 natural log
S43D: -1.43 natural log
V35M: -1.12 natural log
R30W: -1.5 natural log
L31A: -1.51 natural log
A29W: -1.43 natural log
L45Y: -1.14 natural log
E44M: -1.46 natural log
K39M: -1.09 natural log
E32C: -1.24 natural log

Block 2
Target: Interferon regulatory factor 5, full length, phosphomimetic (IRF5, Homo sapiens, UniProt Q13568-2, residues 1-514, K96S/S451D/S453D/S456D/S462D)
Method: protein-binding microarray
Molecule type: double-stranded DNA, one strand shown
Sample: in vitro
Concentration: 250 nM
Notes: 60-bp whole probe
With: salmon DNA 0.4 mg/ml
Baseline: random background probes
Direction: higher = stronger binding
Quantity: log fluorescence
All sequences stand within: GCCTAGCAC … GTCTTGATTCGCTTGACGCTGCTG
GACGGACTGGGGTTTCGGGGCGTGCTA: 0.63 z-score
TCATTTTTCTATATGCAACTGTGCTAG: 2.1 z-score
GACTGTTCCGGTTTCGGGACGTGCTAG: 4.91 z-score
GGCGGTTTCGACTATCGGGACGTGCTA: 7.15 z-score
TCCTGTATGGATGTGTTTTAGTGCTAG: 0.282 z-score
TTAGATATCGGGTTTCCATTAGTGCTA: 2.68 z-score
GACGGTTTCCTTTTTCTGACGTGCTAG: 1.3 z-score
TTAGCTATCGGGACTGGATTAGTGCTA: 2.02 z-score
TTAAATATCGGGACTGGATTAGTGCTA: 1.65 z-score
AAAACTCTTTATTTAAGCTCGTGCTAG: 0.692 z-score
TCATATATATATTGTTAGACTGTGCTA: 0.803 z-score
TCAATCCTTCATTTGAAACTGTGCTAG: 0.441 z-score
CGCTCTGTGCTCTTTGGGCTGTGCTAG: -0.474 z-score
ATAGATATCAGACTGGATTAGTGCTAG: 0.367 z-score
GACGGTTTCGACTTTCGGGCCGTGCTA: 7.71 z-score
TTAGGTCTGCTTATCCTTTAGTGCTAG: -0.179 z-score
GACGGTATCCTTATCCTGATGTGCTAG: 0.106 z-score
TCACGTGTTTTTCTCCTACTGTGCTAG: 0.8 z-score
GACGATATCAGTATCCAGACGTGCTAG: 1.18 z-score

Block 3
Target: RING finger protein unkempt homolog, zinc fingers 1-6, GST-SBP tag (UNK, Homo sapiens, UniProt Q9C0B0, residues 30-357)
UniProt Q9C0B0, sequence (30-357, looked up): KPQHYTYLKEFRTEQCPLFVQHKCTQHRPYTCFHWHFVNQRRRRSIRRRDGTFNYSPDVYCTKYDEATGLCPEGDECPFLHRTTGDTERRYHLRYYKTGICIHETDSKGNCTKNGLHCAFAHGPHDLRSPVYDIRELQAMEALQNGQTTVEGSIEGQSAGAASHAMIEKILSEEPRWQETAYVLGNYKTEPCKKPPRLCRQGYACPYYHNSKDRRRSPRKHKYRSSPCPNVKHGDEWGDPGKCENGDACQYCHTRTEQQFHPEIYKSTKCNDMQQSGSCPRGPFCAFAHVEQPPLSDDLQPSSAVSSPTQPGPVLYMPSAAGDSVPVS
Method: RNA Bind-n-Seq
Molecule type: RNA
Sample: in vitro
Concentration: not given
Notes: RNA with constant flanks, human and mouse sites, ends assumed
Baseline: input RNA pool
Direction: higher = stronger binding
Quantity: bound/input enrichment
All sequences stand within: GGGAGUUCUACAGUCCGACGAUC … CAACAGAGGAUUGAGCAUCA
GCAGAGAUUCAUCACAGUUGGACUUCAGGGGUAGGGACAUACAUUCUGGGGAUUUUCGGGAUAGAGAAGGACCACCUAUGGACUAUAGGGGUGGAGAUGGUACUUCUAUGGAUUAUAGAG: 1.42 ratio
GUUGAUGUGGAUUCUCUUGCUGAGUUAGAUGAUGGAAUGGCUUCCAAUCAAAAUUCUCCCAUUAGAACUUUUGGUCUCAAUCUUUCUUCGGAUUCUUCAGCACUAGGGGCUGUUGCUUCU: 5.29 ratio
GAUCUAUAUACAUUGCCUGUAUCCAGGAGGCUACACACCAGCAAACCGUGAAGGAGAAUGGGACACUGGGUCAUGGCCUGGAGUUGCUGAUAAUUUAGGUGGGAUAGAUACUUGGUCUAC: 0.237 ratio
AUGGAGGCGUCCAGCGAGCCGCCGCUGGAUGCUAAGUCCGAUGUCACCAACCAGCUUGUAGAUUUUCAGUGGAAACUGGGUAUGGCUGUGAGCUCAGACACUUGCAGAUCUCUUAAGUAU: 0.164 ratio
AAAGUCGGGACAGAGAACAAGAUAGAAAGUCCAAGGAGAAAGAAAAGAAGGGAUCUGAUGAUAAAAAGAGUAGUGUGAAGUCCAGUAGUCGAGAAAAGCAGAGUGAAGACACAAACCCUG: 1.13 ratio
GAGGAGGACUCUGACGACGACGAAGCGCUCAGCCCACCAAAACGAGGAAGACCCCAAGUUAGAUUGCCAAUUAAAACAAAAGGGAGAUUUGGCCCUUCUUUCCCAAGUCGCAGCCAACGA: 4.51 ratio
AAGAGAAAAUGCCUGCUGUUGUAAAUGUCUCAGCCCCUCGUUCUUGGUCCUGUCCCUUGGAACCUUUGUACGCUUUGCUCAAAAAAAAACAAAAAAAAAAAACAAAAAAAAAAAACAACG: 0.418 ratio
ACCUAGCCAGUCCAACCUCCACCAUGGGGGCCGUGACCUGGCUACUGCCAGGCAUCUUUCUAGCUUUGUUUGCCCUCACUCCCGAAGGUGGGGUCCUCAAGAAAAUCAUCAGGCACAAGC: 0.192 ratio
CAAGACAAGUUUCAGAUCAUGUCAGACCAGAUCAUCGGAAGGAUAGAUGACAUGAGCAGUCGGAUUGACGACCUGGAGAAGAAUAUCGCUGACCUCAUGACCCAGGCUGGAGUAGAAGAA: 0.541 ratio
UUCCUGACCCGGCCUAAGGUCCCUGUCUUGCAGCUGGAUAGCGGCAACUACCUCUUCUCCACUAGUGCAAUCUGCCGAUAUUUUUUUUUGUUAUCUGGCUGGGAGCAAGAUGACCUCACU: 0.955 ratio
CAGAUGUCUCCCCUUUCCUUAUAUGGUGAAAACUCUAAUAGUCUCUCUUCAGCGGAGCCACUGAAGGAAGAUAAGCCUGUCACUGGUCCUAGGAACAAGACUGAAAAUGGACUGACUCCA: 0.227 ratio

Block 4
Target: CCNE1, cyclin fold, Cln2 fusion (human)
Method: yeast growth competition, sequencing
Sample: yeast
Notes: strong parent motif
Baseline: not given
Direction: higher = stronger binding
Quantity: normalised enrichment score
Starting sequence: CDKN1B docking peptide (human); PSACRNLFGPVDH; partner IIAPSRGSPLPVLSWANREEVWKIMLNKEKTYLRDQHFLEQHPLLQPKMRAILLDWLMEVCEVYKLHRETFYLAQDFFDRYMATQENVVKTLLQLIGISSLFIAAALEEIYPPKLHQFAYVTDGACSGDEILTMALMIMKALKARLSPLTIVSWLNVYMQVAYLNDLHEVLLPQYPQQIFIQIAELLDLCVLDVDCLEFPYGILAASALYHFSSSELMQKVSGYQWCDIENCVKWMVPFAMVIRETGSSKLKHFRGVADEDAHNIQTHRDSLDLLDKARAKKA
PSACRNLFTPVDH [G9T]: 1.39
PSACRNLFGPDDH [V11D]: 2.55
PSACMNLFGPVDH [R5M]: 0.429
PSACRNLRGPVDH [F8R]: 0.491
PSACRNLFGPVDR [H13R]: 3.51
PSACRNLFGTVDH [P10T]: 3.74
PSACRNLFGPVEH [D12E]: 2.75
PSACRTLFGPVDH [N6T]: 1.74
PSACRNLFRPVDH [G9R]: 0.233
PSACRNPFGPVDH [L7P]: -0.209
PMACRNLFGPVDH [S2M]: 1.83
PSACLNLFGPVDH [R5L]: 0.636
PSACRNLFGPVCH [D12C]: 2.67
PSACRNWFGPVDH [L7W]: 0.0403
PSVCRNLFGPVDH [A3V]: 5.74
PSACRNLFIPVDH [G9I]: 0.595
PSACRNLFGPVDN [H13N]: 2.99
PSACRNLFGPEDH [V11E]: 2.64
PSACRNLFGPVRH [D12R]: 2.4
PSACRNLFGPQDH [V11Q]: 2.55
PSAERNLFGPVDH [C4E]: 0.445
PSACRNNFGPVDH [L7N]: -0.501
PSACQNLFGPVDH [R5Q]: 0.248
PSACRNLFGPFDH [V11F]: 4
PSACRNLFEPVDH [G9E]: 1.09

Block 5
Target: Transcriptional repressor CTCF (CTCF, Homo sapiens, UniProt P49711, residues 1-727, full length assumed)
UniProt P49711, sequence (whole entry, looked up): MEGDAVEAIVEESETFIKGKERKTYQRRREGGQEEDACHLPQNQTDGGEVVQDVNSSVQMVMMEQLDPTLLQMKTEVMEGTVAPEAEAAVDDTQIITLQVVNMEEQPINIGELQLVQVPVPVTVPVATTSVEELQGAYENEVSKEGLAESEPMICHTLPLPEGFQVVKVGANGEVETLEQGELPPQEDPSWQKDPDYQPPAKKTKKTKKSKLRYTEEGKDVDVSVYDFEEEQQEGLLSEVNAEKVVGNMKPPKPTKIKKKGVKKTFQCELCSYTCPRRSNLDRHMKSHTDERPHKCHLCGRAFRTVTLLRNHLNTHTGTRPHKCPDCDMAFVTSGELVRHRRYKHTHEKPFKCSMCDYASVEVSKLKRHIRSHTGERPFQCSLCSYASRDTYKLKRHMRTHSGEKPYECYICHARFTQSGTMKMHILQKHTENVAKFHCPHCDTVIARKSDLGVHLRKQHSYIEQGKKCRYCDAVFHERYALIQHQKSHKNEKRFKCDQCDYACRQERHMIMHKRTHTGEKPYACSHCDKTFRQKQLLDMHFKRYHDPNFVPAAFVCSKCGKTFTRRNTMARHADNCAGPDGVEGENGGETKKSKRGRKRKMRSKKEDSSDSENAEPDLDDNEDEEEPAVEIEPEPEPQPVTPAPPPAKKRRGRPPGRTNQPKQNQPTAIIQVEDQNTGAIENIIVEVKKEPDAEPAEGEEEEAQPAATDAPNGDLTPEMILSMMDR
Method: protein-binding microarray
Molecule type: double-stranded DNA, one strand shown
Sample: in vitro
Concentration: not given
Notes: k-mer, scored over probes, only values ≥0.25
Direction: higher = stronger binding
Quantity: E-score
GACTAATA: 0.27
AAATTCCA: 0.277
GTATAACA: 0.359
TGACATAA: 0.31
ATAATTAG: 0.29
ATCATACA: 0.308
TATACACA: 0.307
GGTATATA: 0.305
CCCTACCG: 0.275
ACATATAG: 0.295
ACTATAAT: 0.299
ATATACTC: 0.278
ATCAACAT: 0.269
ACTTATAA: 0.251
CAGAAATG: 0.251
ATAGGAAA: 0.25
GCATGCGC: 0.309
GTTAATAA: 0.291

Other studies, line by line
PhoQ, residues 284 288 289 292 302 303 TTCLQL — fold induction (PhoP, residues 12 14 15 18 19 NQFFI (Escherichia coli, UniProt P23836); Sort-seq, measured: YFP reporter; E. coli; PhoQ-PhoP variant library, with: 10 µM Mg2+; baseline: high Mg2+ state, higher = stronger signaling): 6.83

Excerpt of the above (block 5):
GGTATATA: 0.305
CCCTACCG: 0.275
ACATATAG: 0.295
ACTATAAT: 0.299
ATATACTC: 0.278
ATCAACAT: 0.269
ACTTATAA: 0.251
CAGAAATG: 0.251
ATAGGAAA: 0.25
GCATGCGC: 0.309
